Published values of several laboratories.
Each numbered part is a random draw from the data of one study; scales do not carry over between parts. Substitutions count along the parent as printed.

Block 1
Target: Max-binding protein MNT, bHLH-zipper, MAX partner unstated (MNT, Homo sapiens, UniProt Q99583, residues 220-300)
Method: protein-binding microarray
Form: double-stranded DNA, one strand shown
Matrix: in vitro
Concentration: not given
Setting: k-mer, scored over probes, only values ≥0.25
Direction: higher = stronger binding
Target sequence (chain): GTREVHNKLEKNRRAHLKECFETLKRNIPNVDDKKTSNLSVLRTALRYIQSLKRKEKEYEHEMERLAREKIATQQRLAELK
`AGGAGGGG` gave an E-score of 0.275.
For `CACGTAGC`, the E-score was 0.272.
`ACATGCCC` has an E-score of 0.368.
With `ATCGCACG` the E-score was 0.308.
`ACGCGCTA` has an E-score of 0.257.
With `CTGCCCAC` the E-score was 0.256.
`ACGCCACC` gave an E-score of 0.32.
The E-score of `CGTGGAGA` is reported as 0.346.
The E-score of `CGTGTAAG` is reported as 0.338.
For `CTCAGCAC`, the E-score was 0.281.
The E-score of `CAACATGG` is reported as 0.281.
`CACGCCAA` gave an E-score of 0.266.
The E-score of `AACATGCG` is reported as 0.427.
`ACACACGA` has an E-score of 0.317.
With `GGCGTGTA` the E-score was 0.332.
`ATGCACGA` gave an E-score of 0.332.
With `CGTCGTGC` the E-score was 0.292.
For `CAGCGTGG`, the E-score was 0.436.
`AGGGTGGG` gave an E-score of 0.331.
`CGTGCTCC` gave an E-score of 0.351.
`CATGGCCG` gave an E-score of 0.304.
For `CCGTGCAC`, the E-score was 0.334.
The E-score of `ACGCGCAT` is reported as 0.34.
With `ACGTGATG` the E-score was 0.421.
For `CACATGCG`, the E-score was 0.463.

Block 2
Target: Histone acetyltransferase KAT6A, both winged helices, GST fusion (KAT6A, Homo sapiens, UniProt Q92794, residues 1-181)
Method: protein binding microarray
Form: double-stranded DNA, one strand shown
Matrix: in vitro
Concentration: not given
Setting: 8-mer, flanks averaged, mean of 2 arrays, mostly near background
Relative to: not given
Direction: higher = stronger binding
Residues (chain): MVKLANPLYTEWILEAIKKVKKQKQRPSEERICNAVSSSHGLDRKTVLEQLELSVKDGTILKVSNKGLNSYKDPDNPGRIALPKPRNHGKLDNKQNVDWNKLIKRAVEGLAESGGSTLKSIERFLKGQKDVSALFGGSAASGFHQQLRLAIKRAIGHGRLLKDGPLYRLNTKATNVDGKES
With `TCGAATCA` the E-score was -0.17.
With `CAGATCAA` the E-score was -0.121.
`GACCTCAA` has an E-score of -0.128.
`GGACGCCC` has an E-score of 0.0831.
`GGGGTACA` has an E-score of -0.083.
`AGGCCTAA` gave an E-score of -0.148.
`AAAATCAC` has an E-score of -0.133.
`ATTTCGTA` gave an E-score of -0.107.
`AAAGTGAT` gave an E-score of -0.173.
`GGCCTACC` has an E-score of -0.056.
`GACCCGCC` gave an E-score of 0.208.
The E-score of `TATTAAGA` is reported as -0.0152.
With `CGTAAGGC` the E-score was 0.0716.
`AAAACCAA` has an E-score of 0.0312.
With `ATTAGTCC` the E-score was -0.0413.
The E-score of `CGTGAAAC` is reported as 0.16.
For `ACGCGGAA`, the E-score was 0.273.
With `TAACGGAA` the E-score was 0.233.
The E-score of `CAGATAAC` is reported as -0.0381.
With `GCCCTGCA` the E-score was 0.0241.
With `GAGCAGTA` the E-score was -0.207.
With `AAGTCCCA` the E-score was -0.183.
`ACGATAGA` has an E-score of -0.00934.
`ATTAGCGG` gave an E-score of 0.213.
For `ATGACGCC`, the E-score was 0.0863.

Block 3
Target: RING finger protein unkempt homolog, zinc fingers 1-6, GST-SBP tag (UNK, Homo sapiens, UniProt Q9C0B0, residues 30-357)
Chain of UniProt Q9C0B0 (30-357, looked up): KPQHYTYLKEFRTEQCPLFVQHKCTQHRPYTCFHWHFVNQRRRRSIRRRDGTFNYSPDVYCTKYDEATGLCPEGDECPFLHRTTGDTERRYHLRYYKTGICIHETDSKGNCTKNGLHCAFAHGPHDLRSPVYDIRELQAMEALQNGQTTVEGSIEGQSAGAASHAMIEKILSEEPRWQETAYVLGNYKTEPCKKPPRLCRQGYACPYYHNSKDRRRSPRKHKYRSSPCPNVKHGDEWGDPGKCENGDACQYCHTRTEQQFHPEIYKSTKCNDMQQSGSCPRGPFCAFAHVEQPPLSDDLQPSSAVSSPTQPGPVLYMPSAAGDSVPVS
Method: RNA Bind-n-Seq
Form: RNA
Matrix: in vitro
Concentration: not given
Setting: RNA with constant flanks, ends assumed
Relative to: input RNA pool
Direction: higher = stronger binding
Shared flanks, not repeated: GGGAGUUCUACAGUCCGACGAUC … CAACAGAGGAUUGAGCAUCA
With `CAUAAUCUGAAGGAUCGCUACUAUUCAGGACUAAUCUAUACUUAUUCUGGACUCUUCUGUGCCGUUAUAAACCCUUACAAGAAUCUUCCAAUUUACUCUGAGAAUAUUAUUGAAAUGUAC` the bound/input enrichment was 0.36 ratio.
For `AUGGGUGGAUUAUUUUCUCGAUGGAGGGCAAAACCUUCAACAGUAGAAGUUCUAGAAAAUACCGAUAAGGAAAUUCAAGCAUUGGAAGAAUUUAGAGAAAAAAAUCAGAGAUUGCAAAAA`, the bound/input enrichment was 0.774 ratio.
The bound/input enrichment of `UCUGUCUGACUCCUGGGUCUGUGCGCCAUGGCAUGAGUGUUUUCUAGUAGUAGACUGGAGCCGCCGACUGUUUCUAAGAACAGAUGAUCUGGUUCCUGAUGUGUAGAGACUCUUAUGUAC` is reported as 0.381 ratio.
`ACCUCCAGAAAGAAGAAUAUUGGCCCCUUGAAUUCUGGAAGUUCAUUGAAGAGUCUGAAAUCCGGGACUUAUUUCAAAUUUGGACAUGGCUAGUCGAGGCGCAACAAGACCCAACGGGCC` has a bound/input enrichment of 0.27 ratio.
With `GAGGAGUUAGAUACCUUAUUAAGCAAUUUUUGUGAACUCUCCACUCCUGGAGGUGCCGAGAACCGUUAUGGGAAAAUAAACAUCUUACUUCAAACUUAUAUCAGCCGAGGAGAAAUGGAC` the bound/input enrichment was 1.93 ratio.
The bound/input enrichment of `GCAGAUUUCUGUGCAUCGUGCUGUGAACCUCUGAUGACCCUAAAGUUAUCUAUGUUCUCCUCCGUGGAAUAUUUCCUUUUGAGAGAUUGUAUAUUUUAAAAUACUGUCUAGAGUUUAUGA` is reported as 0.351 ratio.
For `CCUCCUCCAUCGAGGGAGAGGCCUGAAGGGACUGCCUACUGCAGCUCGUUGCCAAUCACACCGCUUUCUAUUUGUUAAGUAUAAAUUUAAAUUUAAAAUCACUUUUUUAACGAAUGGGGG`, the bound/input enrichment was 0.167 ratio.
`CAGGCAGCUUUGGAAUUUCAUGGUGUGGCCCAAGAUUUGUCUCAGCAGUUGGACGGCUUAUCCGGGAUGUUGUGCGUAGAUGUAGCACCAGCUGAUGGAGCAUCGAUUCAGCAAACUUUA` gave a bound/input enrichment of 0.199 ratio.
With `GUUUUCAGUCUCUUCCUGUCCUGAGUUUUAUUAAGAAAUCCUUUUUUCUUUUUCUUCUUUUCCGGGGAUAUAUAGUAAUAUUAGUGUAAAGAUUUUAAUUUGGGCAACUUUGACUCUUAA` the bound/input enrichment was 2.7 ratio.
`CUCGAUUAUCUCAAGAGAGAGUGUGAAGCAAAGAGUGAAGUGAUGUUUUUUGCAGAAGCUACCCGUCACUUGGAAGAGAAGAAGAAAAAACGAAAAAACAGGAAAAGGAUGAUUUUAACA` gave a bound/input enrichment of 0.287 ratio.
For `CAAAGUAUUGAACGUUCUCAUCGGAUUGCCACAGAGACUGACCAGAUUGGCUCAGAAAUCACCGAAGAGCUGGGGGAACAACGAGACCAGUUAGAACGUACCAAGAGUAGACUGGUAAAC`, the bound/input enrichment was 0.369 ratio.

Block 4
Target: Sal-like protein 4, full length isoform B (SALL4, Homo sapiens, UniProt Q9UJQ4-2, residues 1-616)
Method: universal PBM
Form: double-stranded DNA, one strand shown
Matrix: in vitro
Concentration: not given
Setting: 8-mer, flanks averaged, mean of replicates
Direction: higher = stronger binding
`CTTGTCAC` gave an E-score of -0.0883.
The E-score of `GTGAACTA` is reported as 0.12.
`ATATCCGC` has an E-score of 0.158.
`CAAAGTGC` gave an E-score of -0.0925.
For `AACCGTAC`, the E-score was 0.0247.
`ATCTCAGC` has an E-score of -0.0634.
For `ACTTCTGC`, the E-score was -0.0147.
With `TCGGTCCA` the E-score was -0.223.
With `CAGTCAGC` the E-score was -0.193.
`AGGGGCTA` gave an E-score of -0.131.
`AGGTCTTC` gave an E-score of -0.0744.
The E-score of `GAGAACAA` is reported as 0.104.
The E-score of `TGATCACA` is reported as 0.0544.
With `CAGTAACC` the E-score was -0.106.
With `GAATGTCC` the E-score was 0.0589.
The E-score of `GGAGGCCA` is reported as -0.32.

Block 5
Target: Prothrombin, mature alpha-thrombin (F2, Homo sapiens, UniProt P00734)
Method: aptamer microarray, sandwich
Form: DNA with 2'F-ANA
Matrix: in vitro
Concentration: 200 nM
Setting: whole 15-mer aptamer, many near background
With: Cy3 exosite-II aptamer, 400 nM
Direction: higher = stronger binding
Oligonucleotide: GGTTGGTGTGGTTGG
Under “mean fluorescence intensity”, `2'F-ANA at 1 2 7 8 11 13` is recorded as 305 a.u.
Under “mean fluorescence intensity”, `2'F-ANA at 4 8 10 11 12 13` is recorded as 98.3 a.u.
`2'F-ANA at 2 4 5 6 9 12 14` — result for “mean fluorescence intensity”: 55.5 a.u.
Under “mean fluorescence intensity”, `2'F-ANA at 1 2 4 5 7 11 13 14` is recorded as 45.7 a.u.
Under “mean fluorescence intensity”, `2'F-ANA at 5 7 14` is recorded as 44.5 a.u.
`2'F-ANA at 2 3 11 13 15` — result for “mean fluorescence intensity”: 640 a.u.
`2'F-ANA at 2 3 4 6 8 14` — result for “mean fluorescence intensity”: 290 a.u.
`2'F-ANA at 2 3 4 5 6 11 12 13 14 15`: “mean fluorescence intensity” 56.1 a.u.
For `2'F-ANA at 1 2 12 15`, “mean fluorescence intensity” read 470 a.u.
For `2'F-ANA at 3 4 6 7 9 12 13 15`, “mean fluorescence intensity” read 518 a.u.
`2'F-ANA at 3 4 8 9 11 13` — result for “mean fluorescence intensity”: 499 a.u.
`2'F-ANA at 1 3 7 11 12 14 15`: “mean fluorescence intensity” 124 a.u.
`2'F-ANA at 1 6 7 8 10 11 12 13 15` — result for “mean fluorescence intensity”: 88.3 a.u.
`2'F-ANA at 2 3 4 5 8 11 13 15` — result for “mean fluorescence intensity”: 63.7 a.u.
`2'F-ANA at 2 3 4 5 6 7 10` — result for “mean fluorescence intensity”: 47.2 a.u.
`2'F-ANA at 5 6 8 9 11 13 15` — result for “mean fluorescence intensity”: 76 a.u.
`2'F-ANA at 2 3 5 6 7 10 12 14` — result for “mean fluorescence intensity”: 44.9 a.u.
Under “mean fluorescence intensity”, `2'F-ANA at 1 2 4 5 8 10 12 13 14 15` is recorded as 48.3 a.u.
`2'F-ANA at 1 4 6 8 10 11 15` — result for “mean fluorescence intensity”: 50.4 a.u.
For `2'F-ANA at 2 4 5 7 9 11 13 14`, “mean fluorescence intensity” read 47.5 a.u.
`2'F-ANA at 4 6 8 9 10 12 13 14 15` — result for “mean fluorescence intensity”: 52.8 a.u.
For `2'F-ANA at 2 5 7 10 11 12 13 15`, “mean fluorescence intensity” read 51.4 a.u.

Block 6
Target: ABI1, truncated, D143A, DHFR fusion (Arabidopsis thaliana)
Method: DHFR PCA, deep sequencing
Matrix: yeast
Setting: methotrexate growth selection, single substitutions
With: (+)-ABA 17 µM
Relative to: wild-type fitted maximum
Direction: higher = stronger binding
Parent: PYL1, truncated, DHFR fusion (Arabidopsis thaliana); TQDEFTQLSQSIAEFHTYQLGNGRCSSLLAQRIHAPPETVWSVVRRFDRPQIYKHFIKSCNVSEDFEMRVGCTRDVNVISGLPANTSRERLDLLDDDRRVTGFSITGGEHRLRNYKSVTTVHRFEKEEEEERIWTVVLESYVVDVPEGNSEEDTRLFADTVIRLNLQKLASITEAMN; partner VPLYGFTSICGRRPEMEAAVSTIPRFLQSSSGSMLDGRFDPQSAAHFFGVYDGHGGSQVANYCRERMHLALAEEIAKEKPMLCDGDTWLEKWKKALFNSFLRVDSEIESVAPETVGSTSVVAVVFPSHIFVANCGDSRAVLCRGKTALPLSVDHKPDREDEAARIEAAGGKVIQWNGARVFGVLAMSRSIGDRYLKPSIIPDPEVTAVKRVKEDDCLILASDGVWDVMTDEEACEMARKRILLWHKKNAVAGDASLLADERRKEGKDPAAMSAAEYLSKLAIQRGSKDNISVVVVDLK
`R90K` — result for “relative binding score”: 75.1%.
`H34S`: “relative binding score” 84.2%.
`L20G`: “relative binding score” 82.8%.
For `G102R`, “relative binding score” read 11.6%.
Under “relative binding score”, `L8H` is recorded as 56.7%.
Under “relative binding score”, `R155E` is recorded as 13.6%.
`S63W` — result for “relative binding score”: 24.7%.
`T101R` — result for “relative binding score”: -11%.
`R163W` — result for “relative binding score”: 4.57%.
For `V161E`, “relative binding score” read -15.5%.
For `G107E`, “relative binding score” read 41.4%.
`Y141I` — result for “relative binding score”: -12.3%.
Under “relative binding score”, `S59K` is recorded as 67.5%.
Under “relative binding score”, `T120I` is recorded as -0.755%.
`P50Y` — result for “relative binding score”: -12.5%.
For `Q10N`, “relative binding score” read 80.9%.
